{"data": "Measurements collected from several papers", "target": "Muscarinic acetylcholine receptor M3 (CHRM3, Homo sapiens, UniProt P20309)", "note": "Values joined by “and” are separate records of one study, mostly repeats; a detail may differ."}
{"SMILES": "Cc1cc(Nc2nc(C[C@@]3(C(=O)O)CCN(Cc4cccc(Cl)c4F)[C@H](C)C3)cc(C)c2F)[nH]n1", "test": "inhibitor", "setting": "10 µM", "endpoint": "inhibition", "result": "10.8%"}
{"SMILES": "C[C@H](NCc1ccc(-c2ccc(C(F)(F)F)cc2)cc1)C(N)=O", "test": "radioligand binding", "setting": "1 µM, together with: [3H]N-methylscopolamine 0.80 nM", "endpoint": "inhibition of binding", "result": "1%"}
{"SMILES": "CS(C)(=O)=Nc1ccc(-c2ccc(-c3nc4cc(O[C@@H]5CO[C@H]6[C@@H]5OC[C@H]6O)[nH]c4cc3F)cc2)cc1", "test": "calcium signal, antagonist", "setting": "10 µM", "endpoint": "inhibition", "result": "48%"}
{"SMILES": "CCCO[C@H]1[C@H](O)[C@@H](N)[C@@H](O[C@H]2[C@H](O[C@@H]3O[C@H](CO)[C@@H](O[C@H]4O[C@@H](CN)[C@@H](O)[C@H](O)[C@H]4N)[C@H]3O)[C@@H](O)[C@H](N)C[C@@H]2N)O[C@@H]1CO", "test": "radioligand binding", "setting": "10 µM, 1% DMSO", "endpoint": "specific binding", "result": "20%"}
{"SMILES": "O=C(O)c1ccc(-c2nc(-c3ccccc3Cl)c3sccn23)cc1", "test": "radioligand binding", "setting": "10 µM, safety screen panel", "how to read": "reference: control", "endpoint": "specific binding", "result": "105% and 104%"}
{"SMILES": "CCc1nnc(-c2c(OC)cc(-c3cnc4cc(-c5cnn(C)c5)ccn34)cc2OC)o1", "test": "antagonist radioligand, radioligand binding", "setting": "10 µM, SafetyScreen44 M3 mean", "how to read": "lower = stronger displacement", "endpoint": "remaining binding", "result": "96.8%"}
{"SMILES": "CN[C@@H]1[C@H](O)[C@H](NC)[C@H]2O[C@]3(O)[C@H](O[C@@H]2[C@H]1O)O[C@H](C)C[C@H]3NC(=O)Cc1cc(Cl)ccn1", "test": "ligand displacement, radioligand", "setting": "10 µM", "endpoint": "inhibition", "result": "19%"}
{"SMILES": "Cc1sc2c(c1C)C(c1ccc(Cl)cc1)=NC(CC(=O)OC(C)(C)C)c1nnc(C)n1-2 (stereo not shown)", "test": "ligand displacement, radioligand", "setting": "1 µM", "endpoint": "inhibition", "result": "-4%"}
{"SMILES": "C/C(=N\\OCCCN1CCCCC1)c1ccc(C(F)(F)F)cc1", "test": "agonist, IP-One", "setting": "10 µM", "endpoint": "activation", "result": "6.92%"}
{"SMILES": "CCN(CC)CCOc1ccc(-c2nnn(Cc3ccc(OC)cc3)c2N)cc1", "test": "radioligand binding", "test system": "HEK293", "setting": "10 µM, safety profiling", "endpoint": "inhibition", "result": "-0.96%"}
{"SMILES": "N[C@H](C(=O)N1CCCC1)C1CCN(c2nccc3c(-c4ncc(Cl)cc4Cl)cccc23)CC1", "test": "functional response, agonist", "setting": "10 µM", "endpoint": "response", "result": "4%"}
{"SMILES": "COc1ccc(F)cc1S(=O)(=O)Nc1cnc2c(c1)C(=O)NCCO2", "test": "ligand displacement, radioligand", "setting": "10 µM", "endpoint": "inhibition", "result": "1%"}
{"SMILES": "Cc1cc(-c2ccc3ccccc3c2)nnc1NCCN1CCN(C)CC1", "test": "antagonist", "setting": "concentration not given", "endpoint": "antagonist activity", "result": "negative"}
